Published values of several laboratories.

O=C(/C=C/c1cccc(S(=O)(=O)Nc2ccccc2)c1)NO: “volume of distribution at steady state” 25.7 L/m² (human, plasma; 2000 mg/m^2, cycle 1 day 1, mean).
For Cc1ccc([C@@H]2O[C@H](CO)[C@@H](O)[C@H](O)[C@H]2O)cc1Cc1ccc(-c2ccc(F)cc2)s1, “volume of distribution” read 178 L (human, maintenance hemodialysis patients; oral, 100 mg once daily, steady state, median).
COc1ccc(F)cc1C(=O)NCc1ccc(-c2nn([C@@H](C)C(F)(F)F)c(N)c2C(N)=O)cc1 — result for “volume of single adjusted compartment (VSAC)”: 0.17 L/kg (Simcyp parameter estimation; human, plasma; intravenous, 22 µg).
NC(=O)N1c2ccccc2CC(O)c2ccccc21 (stereo not drawn): “volume of distribution” 36.2 L (population PK modelling; human patients, plasma; dose not given, weight-scaled volume and clearance).
CN(C)CCCNC(=O)/C(=C/CCCCC(=O)NO)COc1cccc2ccccc12 — result for “volume of distribution at steady state”: 44.9 L (human patients; intravenous, 187.5 mg/m2, day 1, single dose, mean).
Under “volume of distribution”, CC(=O)O[C@H]1C(=O)[C@@]2(C)[C@H]([C@H](OC(=O)c3ccccc3)[C@]3(O)C[C@H](OC(=O)[C@H](O)[C@@H](NC(=O)c4ccccc4)c4ccccc4)C(C)=C1C3(C)C)[C@]1(OC(C)=O)CO[C@@H]1C[C@@H]2O is recorded as 240 L (noncompartmental analysis; human cancer patients, plasma; intravenous infusion, 60 mg/m^2, cycle 1 day 15, together with: daily oral co-medication).
Under “volume of distribution”, Nc1ccn([C@@H]2O[C@H](CO)[C@@H](O)C2(F)F)c(=O)n1 is recorded as 397 L/m² (HPLC-UV; human, plasma; 800 mg/m^2, mean, after paricalcitol).
Under “volume of distribution (Vz)”, CN(C)N=Nc1[nH]cnc1C(N)=O is recorded as 37.2 L/m² (human patients, plasma; intravenous, 1000 mg/m^2 over 1 h, cycle 2 day 1, staggered with twice-weekly co-drug).
COc1c(OCCCN2CCOCC2)ccc2c1N=C(NC(=O)c1cnc(N)nc1)N1CCN=C21: “volume of distribution” 522 L (human; dose not given, compartment 3).

Repeated from above:
O=C(/C=C/c1cccc(S(=O)(=O)Nc2ccccc2)c1)NO: “volume of distribution at steady state” 25.7 L/m² (human, plasma; 2000 mg/m^2, cycle 1 day 1, mean).
